Assay results of several laboratories.
Protocols differ between the studies behind these lines. Values joined by “and” are separate records of one study, mostly repeats; a detail may differ. Numbers after ± are the reported error.
Organism: Plasmodium falciparum

Structure (SMILES)	test	test system	conditions	quantity	result
NCC(=O)NCCC(c1ccccc1)c1ccccc1		7G8		IC50	3980 nM
COCC(=O)N1CCC[C@H](C(=O)NCc2nc(-c3ccc(C#N)cc3)cs2)C1		Dd2	with: WLW-vs fixed ratio 0.40:0.60	EC50	6.3 nM and 3.5 nM
CCN1CCN(Cc2ccc(Nc3nc4ccc(Oc5ccnc(NC(C)=O)c5)cc4n3C)cc2C(F)(F)F)CC1	SYBR Green I	Dd2	72 h	EC50	2700 ± 100 nM
O=S(=O)(c1ccc(-c2ccc3ncnc(Nc4ccc(OCc5ccccc5)c(Cl)c4)c3c2)cc1)N1CCOCC1	parasite growth, SYBR Green fluorescence	C235 (TM91C235), drug-resistant		EC50	450 nM
CCn1cc(-c2nc(C)no2)c(=O)c2cc(F)c(N3CCC(Cc4ccccc4)CC3)cc21	parasite growth, [3H]hypoxanthine incorporation	NF54	72 h	EC50	6 nM
Cc1cc(Nc2ccc(C)c(Cl)c2)n2ncnc2n1	parasite growth, SYBR Green	3D7 wild type	72 h	EC50	1320 ± 510 nM
Cc1cn(C2CC2)c(=O)c2nn(C)c(Cc3ccc(C(F)(F)F)nc3)c12	parasite growth	3D7		EC50	50.1 nM
COc1ccccc1Cn1ccnc1SCC(=O)Nc1cc(C(F)(F)F)ccc1Cl	parasite growth	Dd2		EC50	133 ± 11 nM
Cc1cc(NC2Cc3cc(F)c(F)cc3C2)n2nc(C(C)(F)F)nc2n1	parasite growth	D6		EC50	55 nM
CN(CC(=O)Nc1ccc(N(C)c2ccc(Cl)cc2)cc1)c1ccccc1N1CCCC1=O	parasite growth, LDH	3D7 population D, CSC1 L954F	72 h	EC50	263 nM
COc1ccc(NC(=O)CCNc2cc(C)nc(NCCc3ccc(F)cc3)n2)cc1	parasite growth, SYBR Green	3D7 DHODH E182D	72 h	EC50	1180 ± 180 nM
CC(C)N(c1ccc(Cl)c(F)c1)c1ccc(NC(=O)CN(C)c2ccccc2N2CCCC2=O)cn1	parasite growth, LDH	3D7 population D, CSC1 L954F	72 h	EC50	11 nM
CCN(CC)CCCC(C)Nc1ccnc2cc(Cl)ccc12 (centres unmarked)	ex vivo	Ugandan field isolates		EC50	80 to 100 nM
Cc1c(Cc2ccc(C(F)(F)F)nc2)c[nH]c1C(=O)NC(C)c1cnn(C)c1 (centres unmarked)	SYBR Green	Uganda field isolates, Albumax medium	72 h, unbound, ex vivo patient isolates	EC50	2 nM
CCOCC(=O)N1CCC[C@H](C(=O)NCc2nc(-c3ccc(C#N)cc3)cs2)C1		Dd2 β5 S27F resistant		EC50	19000 ± 7200 nM
CCn1cc(-c2nc(C)no2)c(=O)c2cc(F)c(N3CCC(C)CC3)cc21	parasite growth, [3H]hypoxanthine incorporation	K1	72 h	EC50	13 nM
CC(C)C[C@H](NC(=O)[C@H](Cc1c[nH]c2ccccc12)NC(=O)CN1CCOCC1)C(=O)N[C@H](/C=C/S(C)(=O)=O)Cc1c[nH]c2ccccc12		Dd2 β3 R190S resistant		EC50	23 ± 2.9 nM
Cc1ccc(N(C)c2ccc(NC(=O)CN(C)c3cccnc3N3CCCC3=O)cc2)cc1	parasite growth, LDH	3D7 population E, L562R mutant	72 h	EC50	643 nM

Structure (SMILES)	test	test system	conditions	quantity	result
Cc1nnc(-c2ccc3ccn(CC(=O)Nc4ccccc4Cl)c3c2)o1	parasite viability, SYBR Green flow cytometry	Dd2 multidrug-resistant	48 h, asexual blood stage	EC50	320 nM
CC[C@H](C)[C@H](NC(=O)[C@H]([C@@H](C)CC)N(C)C(C)=O)C(=O)N[C@H](C(=O)N[C@@H](CC(C)C)C(=O)[C@@]1(C)CO1)[C@@H](C)O		Dd2 β5 S28L resistant		EC50	14 ± 1.5 nM
O=C(Nc1cccc(CN2CCN(C(=O)c3cccc(Cl)c3)CC2)c1)c1ccco1	parasite growth, SYBR Green	3D7 DHODH E182D	72 h	EC50	7480 ± 680 nM
Fc1cccc(COc2ccc(Nc3ncnc4ccc(-c5cccc(N6CCOCC6)c5)cc34)cc2Cl)c1	parasite growth, SYBR Green fluorescence	C235 (TM91C235), drug-resistant		EC50	370 nM
O=C(C[C@H]1NCCC[C@@H]1O)Cn1cnc2ccccc2c1=O	cell growth, SYBR Green I	3D7	48 h, asexual blood stage	EC50	0.3 nM
Cc1cccc(C(=O)N2CCN(Cc3cccc(NC(=O)c4ccco4)c3)CC2)c1	parasite growth, SYBR Green	3D7 wild type	72 h	EC50	335 ± 86 nM
Cc1ccc(N(c2ccc(NC(=O)CN(C)c3ccccc3N3CCCC3=O)cn2)C(C)C)cc1F	parasite growth, LDH	3D7 population E, L562R mutant	72 h	EC50	6 nM
COc1cc2c(cc1C(F)(F)F)N(C(=O)Nc1cc(F)cc(-c3cccnc3)c1)CC2		3D7		IC50	1580 nM
Cc1ccc(N(C)c2ccc(NC(=O)CN(C)c3ccccc3N3CCCC3=O)cc2)cc1	parasite growth, LDH	3D7 population A	72 h	EC50	78 nM
CCOC(=O)c1cn(CC)c2cc(N3CCC(Cc4ccccc4)CC3)c(F)cc2c1=O	parasite growth, [3H]hypoxanthine incorporation	Dd2	72 h	EC50	14 nM
COc1ccc(-c2c(C)nn3c(N)c(C#N)cnc23)cc1OC	parasite growth, [3H]-hypoxanthine incorporation	Dd2, MMV390048-resistant S743T mutant	72 h	EC50	544 nM
C=CCn1c(SCC(=O)Nc2cc(C)ccc2OC)nc2sc(C)cc2c1=O	parasite growth, SYBR Green	3D7 wild type	72 h	EC50	320 ± 57 nM
Cc1cc(N[C@H]2CCc3ccc(Cl)cc3C2)n2nc(C(C)(F)F)nc2n1	parasite growth	TM90C2B multidrug-resistant		EC50	1.3 nM
Cc1nc(Nc2ccc(S(F)(F)(F)(F)F)cc2)c2c(C)noc2n1	parasite growth, SYBR Green	3D7 wild type	72 h	EC50	62.9 ± 8.4 nM
Cc1cc(Nc2ccc(S(F)(F)(F)(F)F)cc2)n2nc(C(C)(F)F)nc2n1		Dd2 β3 R190S resistant		EC50	6.2 ± 1.3 nM
CC(Oc1cccc(Cl)c1)C(=O)N1CCc2ccccc21 (centres unmarked)	parasite growth, SYBR Green	3D7 wild type	72 h	EC50	2420 ± 910 nM
O=C1C(O)=C([C@H]2CC[C@H](c3ccc(Cl)cc3)CC2)C(=O)c2ccccc21	parasite growth, SYBR Green I	TM90-C2B, resistant isolate	72 h	EC50	> 2500 nM

Excerpt of the above:
Structure (SMILES)	test	test system	conditions	quantity	result
CCn1cc(-c2nc(C)no2)c(=O)c2cc(F)c(N3CCC(C)CC3)cc21	parasite growth, [3H]hypoxanthine incorporation	K1	72 h	EC50	13 nM
CC(C)C[C@H](NC(=O)[C@H](Cc1c[nH]c2ccccc12)NC(=O)CN1CCOCC1)C(=O)N[C@H](/C=C/S(C)(=O)=O)Cc1c[nH]c2ccccc12		Dd2 β3 R190S resistant		EC50	23 ± 2.9 nM
Cc1ccc(N(C)c2ccc(NC(=O)CN(C)c3cccnc3N3CCCC3=O)cc2)cc1	parasite growth, LDH	3D7 population E, L562R mutant	72 h	EC50	643 nM
Cc1nnc(-c2ccc3ccn(CC(=O)Nc4ccccc4Cl)c3c2)o1	parasite viability, SYBR Green flow cytometry	Dd2 multidrug-resistant	48 h, asexual blood stage	EC50	320 nM
